{"data": "Experimental data of several laboratories", "note": "± marks the error that the study gave."}
{"SMILES": "CCCCCCCCCCCOC(=O)CCCCCN(CCO)CCCCCCCC(=O)OC(CCCCCCCC)CCCCCCCC", "setting": "pH 7.5, formulated", "quantity": "zeta potential", "result": "-0.31 mV"}
{"SMILES": "CN[C@@H](C)C(=O)N[C@H]1CN(S(=O)(=O)c2cccc(S(=O)(=O)N3CC[C@H]4CC[C@@H](C(=O)NC(c5ccccc5)c5ccccc5)N4C(=O)[C@@H](NC(=O)[C@H](C)NC)C3)c2)CC[C@H]2CC[C@@H](C(=O)NC(c3ccccc3)c3ccccc3)N2C1=O", "assay": "LC-MS/MS", "system": "human, advanced solid tumours, plasma", "setting": "intravenous, 30 mg weekly, day 15", "quantity": "AUC(0-t)", "result": "558 ± 169 ng·h/mL"}
{"SMILES": "O=S(=O)(O)Oc1c(O)cccc1O", "system": "human, cerebrospinal fluid", "setting": "concentration not given, mean", "quantity": "CSF concentration", "result": "2.2 nM"}
{"SMILES": "C=CC(=O)Nc1cc(Nc2nccc(Nc3cc(Cl)c(F)cc3C(C)(C)O)n2)c(OC)cc1N1CC[C@@H](N(C)C)C1", "system": "human patients, plasma", "setting": "oral, 100 mg daily, cycle 2 day 1, geometric mean", "quantity": "Css,max", "result": "252 ng/mL"}
{"SMILES": "COc1cc(Nc2ncc3c(n2)-c2ccc(Cl)cc2C(c2c(F)cccc2OC)=NC3)ccc1C(=O)O", "assay": "refers to: Pruritus, grade 2", "system": "cancer patients, phase 1/2", "setting": "oral, dose not given, added: pembrolizumab", "quantity": "patients with adverse event", "result": "8%"}
{"SMILES": "CCO[C@H]1CCN(Cc2c(OC)cc(C)c3[nH]ccc23)[C@H](c2ccc(C(=O)O)cc2)C1", "system": "human mild hepatic impairment, plasma", "setting": "oral, 200 mg single dose, geometric mean", "quantity": "unbound Cmax", "result": "905 ng/mL"}
{"SMILES": "N#CN1C[C@H](n2nc(-c3ccc(Oc4ccc(Cl)cn4)cc3)c(C(N)=O)c2N)CCC12CC2", "system": "human, fasted, plasma", "setting": "oral, 600 mg, i=12", "quantity": "AUC(0-inf), geometric mean", "result": "20600 ng·h/mL"}
{"SMILES": "CCc1cc(C(=O)NC)c2nccc(N3CCc4c(cc(Cn5ccnc5)cc4-c4cn(C)nc4C(F)(F)F)C3=O)c2c1", "assay": "refers to: HGB", "system": "Sprague Dawley rat", "setting": "oral, 50 mg/kg once daily, 7 days", "how to read": "relative to: vehicle", "quantity": "change in clinical chemistry or haematology parameter", "result": "2.45%"}
{"SMILES": "NC1(C(=O)N[C@@H](CCO)c2ccc(Cl)cc2)CCN(c2nc[nH]c3nccc2-3)CC1", "system": "metastatic CRPC patients", "setting": "dose not given, grade 3 to 4, treatment-related, all doses, added: enzalutamide 160 mg daily", "quantity": "incidence of Vomiting", "result": "0%"}
{"SMILES": "Cc1cc(Nc2ccc(S(F)(F)(F)(F)F)cc2)n2nc(C(C)(F)F)nc2n1", "system": "Plasmodium vivax malaria patients", "setting": "oral, 600 mg", "quantity": "adverse event Thrombocytopenia", "result": "0%"}
{"SMILES": "CNC(=O)c1ccc(-c2cnc3ncc(Cc4ccc5ncccc5c4)n3n2)cc1F", "system": "human moderate hepatic impairment", "setting": "oral, 200 mg single dose, adjusted geometric mean", "quantity": "unbound Cmax", "result": "45.9 ng/mL"}
{"SMILES": "COc1cc(OC)cc(N(CCNC(C)C)c2ccc3ncc(-c4cnn(C)c4)nc3c2)c1", "quantity": "pKa2", "result": 2}
{"SMILES": "Cc1ccc(NC(=O)c2ccc(CN3CCN(C)CC3)cc2)cc1Nc1nc(-c2cccnc2)cs1", "system": "human", "setting": "oral, 600 mg daily", "quantity": "max unbound liver inlet concentration", "result": "0.26 to 1.5 µM"}
{"SMILES": "CC(C)(C(=O)N1CCOc2c(C#N)cncc2C1)C(F)F", "system": "human, both sexes, plasma", "setting": "oral, 20 mg once daily, 14 days, multiple ascending dose", "how to read": "relative to: day 14 over day 1", "quantity": "accumulation ratio Cmax", "result": 1.06}
{"SMILES": "C[C@@H](Oc1cc(-c2cnn(C3CCNCC3)c2)cnc1N)c1c(Cl)ccc(F)c1Cl", "system": "patients, plasma", "setting": "oral, dose not given, cycle 2 day 1, added: avelumab", "quantity": "dose-normalised Cmax, mean", "result": "1 ng/mL/mg"}
{"SMILES": "CCn1c(SCC(=O)Nc2cccc(OC)c2)nnc1-c1ccncc1", "system": "octanol/buffer", "setting": "pH 11, known kinase inactives set", "quantity": "logP", "result": 1.94}
{"SMILES": "COc1cc2nccc(Oc3ccc(NC(=O)c4cc5c(n(-c6ccccc6)c4=O)CCCC5=O)nc3)c2cc1OC", "system": "relapsed or refractory AML", "setting": "oral, 10 mg once daily", "quantity": "grade ≥3 Hypophosphatemia patients", "result": "0%"}
{"SMILES": "O=C1Nc2ccc3ncsc3c2/C1=C/Nc1ccc2c(c1)CS(=O)(=O)C2", "system": "octanol/buffer", "setting": "pH 11", "quantity": "logP", "result": 2.52}
{"SMILES": "CO[C@H]1C[C@@H]2CC[C@@H](C)[C@@](O)(O2)C(=O)C(=O)N2CCCC[C@H]2C(=O)O[C@H]([C@H](C)C[C@@H]2CC[C@@H](O)[C@H](OC)C2)CC(=O)[C@H](C)/C=C(\\C)[C@@H](O)[C@@H](OC)C(=O)[C@H](C)C[C@H](C)/C=C/C=C/C=C/1C", "system": "healthy adult horses", "setting": "intravenous, 0.06 mg/kg, 12 h", "quantity": "heart rate", "result": "34 ± 3.5 beats/min"}
{"SMILES": "Cc1cc(-c2nccc3c2ccn3CC(=O)Nc2ccc(-c3cnccn3)cn2)ccn1", "system": "human", "setting": "5 mg once daily, multiple ascending dose", "quantity": "post-procedural erythema", "result": "12.5%"}
{"SMILES": "COc1ccc(NC(=O)CN2CCOCC2)c([N+](=O)[O-])c1", "system": "octanol/buffer", "setting": "pH 11, known kinase inactives set", "quantity": "logP", "result": 2.06}
{"note": "A few entries again:"}
{"SMILES": "COc1cc(OC)cc(N(CCNC(C)C)c2ccc3ncc(-c4cnn(C)c4)nc3c2)c1", "quantity": "pKa2", "result": 2}
